{"data": "Published values gathered from unrelated publications", "note": "A part holds a random share of what one study measured. ± marks the error that the study gave.", "chain of UniProt P08603 (whole entry, unmodified, looked up)": "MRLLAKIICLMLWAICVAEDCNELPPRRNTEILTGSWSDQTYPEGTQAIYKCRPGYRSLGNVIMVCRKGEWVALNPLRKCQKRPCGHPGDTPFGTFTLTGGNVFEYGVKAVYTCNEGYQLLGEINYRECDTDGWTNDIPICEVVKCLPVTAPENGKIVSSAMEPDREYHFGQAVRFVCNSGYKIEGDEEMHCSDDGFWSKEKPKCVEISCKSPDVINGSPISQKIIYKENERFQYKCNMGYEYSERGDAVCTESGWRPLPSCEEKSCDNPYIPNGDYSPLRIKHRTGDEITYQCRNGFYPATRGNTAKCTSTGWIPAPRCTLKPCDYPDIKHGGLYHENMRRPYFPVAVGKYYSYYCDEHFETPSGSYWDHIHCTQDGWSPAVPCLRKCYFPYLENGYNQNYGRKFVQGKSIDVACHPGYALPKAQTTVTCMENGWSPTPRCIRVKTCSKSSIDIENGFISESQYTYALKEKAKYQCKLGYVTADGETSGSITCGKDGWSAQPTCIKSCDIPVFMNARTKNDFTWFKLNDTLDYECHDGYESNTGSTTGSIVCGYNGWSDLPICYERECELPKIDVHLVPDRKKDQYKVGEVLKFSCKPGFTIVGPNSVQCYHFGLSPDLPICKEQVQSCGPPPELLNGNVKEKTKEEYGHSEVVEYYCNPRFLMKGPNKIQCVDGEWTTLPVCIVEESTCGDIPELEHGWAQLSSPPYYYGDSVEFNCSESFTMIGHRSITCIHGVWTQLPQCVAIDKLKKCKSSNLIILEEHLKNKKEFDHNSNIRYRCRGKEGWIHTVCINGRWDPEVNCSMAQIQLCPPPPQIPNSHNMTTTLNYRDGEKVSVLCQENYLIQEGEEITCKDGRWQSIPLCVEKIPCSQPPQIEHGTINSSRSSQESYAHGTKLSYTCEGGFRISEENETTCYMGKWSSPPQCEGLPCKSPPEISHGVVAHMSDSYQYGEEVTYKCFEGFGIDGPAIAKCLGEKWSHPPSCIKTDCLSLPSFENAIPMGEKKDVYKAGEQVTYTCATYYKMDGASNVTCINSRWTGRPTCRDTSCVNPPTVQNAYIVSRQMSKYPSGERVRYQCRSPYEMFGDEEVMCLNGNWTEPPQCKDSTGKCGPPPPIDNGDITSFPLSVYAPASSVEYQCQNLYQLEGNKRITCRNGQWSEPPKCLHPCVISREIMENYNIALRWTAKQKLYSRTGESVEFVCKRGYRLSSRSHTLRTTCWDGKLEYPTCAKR"}
{"data": "Series 1", "molecule type": "peptide", "cells": "tetramer-reactive CD8+ T cells", "species": "COVID-19 convalescent HLA-B*07:02 subjects"}
{"Sequence": "STSAFVETV", "number of clonotypes": 0}
{"Sequence": "FAVDAAKAY", "number of clonotypes": 2}
{"Sequence": "APRITFGGP", "number of clonotypes": 1}
{"data": "Single results of other studies"}
{"Substance": "TFFRLFNRSFTGRRRRSVQWCA", "target or system": "Streptococcus mutans", "assay": "2D-DIGE, item: amino acid ABC transporter ATPase", "system": "peptide, UA159", "conditions": "20 µg/mL, 1 h", "scale": "baseline: water control", "endpoint": "protein level ratio", "result": -4.51}
{"Substance": "TTTATAAAAAACCAATATATGTCTTGACACATGTAAAAAACGTTGTATAATG (dsDNA)", "target or system": "niaR 1-174 Y133A (Streptococcus mutans, UniProt Q8DVX8)", "assay": "EMSA", "system": "double-stranded DNA, one strand shown", "endpoint": "binding", "result": "binds"}
{"Substance": "cbpA fragment (Streptococcus pneumoniae)", "target or system": "CFH 508-567 L543T (Homo sapiens, UniProt P08603)", "assay": "ITC", "endpoint": "Kd", "result": "3.58 ± 1.8 µM"}
{"note": "Excerpt of the above (single results of other studies):"}
{"Substance": "cbpA fragment (Streptococcus pneumoniae)", "target or system": "CFH 508-567 L543T (Homo sapiens, UniProt P08603)", "assay": "ITC", "endpoint": "Kd", "result": "3.58 ± 1.8 µM"}
